{"data": "Results of several laboratories", "note": "“And” joins repeats or separate records; there may be more than shown."}
{"Compound": "CN1C(=O)C(C2C3=C(CC(C)(C)CC3=O)Oc3ccc(Cl)cc32)C(=O)N(C)C1=O (stereo not shown)", "tested on": "3T3-L1 mature adipocytes", "test": "lipolysis, Oil Red O staining", "setting": "IC20", "measurement": "mean lipid content", "value": "0.641 OD492"}
{"Compound": "CCN(CC)C(=O)[C@@H]1C=C2c3cccc4c3c(cn4C(=O)c3ccco3)C[C@H]2N(C)C1", "test": "magnetometer", "test system": "C57BL/6J mouse, male", "setting": "intraperitoneal, 0.25 mg/kg, 30 min session", "measurement": "head-twitch response count", "value": 32.6}
{"Compound": "CC(=O)Oc1ccccc1C(=O)[Se]CC(=O)Nc1cccc(C(F)(F)F)c1", "tested on": "NCI60 NSCLC subpanel", "test": "NCI60 five-dose screen", "measurement": "CC50", "value": "16.8 µM"}
{"Compound": "CC(C)(C)C(=O)OCOP(=O)(OCOC(=O)C(C)(C)C)C1CCCN(O)C1=O (stereo not shown)", "tested on": "SR", "measurement": "log GI50", "value": "-6.36 log M"}
{"Compound": "[2H]C([2H])([2H])C1(C([2H])([2H])[2H])NC(=O)N(c2ccc(F)c(C(F)(F)F)c2)C1=O", "tested on": "Schistosoma mansoni", "test system": "juvenile stage, infected mice", "setting": "oral, single dose", "measurement": "ED50", "value": "77 mg/kg"}
{"Compound": "COc1ccccc1-c1n[nH]c2nc(NC3CCN(C(=O)Cc4ccc(F)cc4F)CC3)ncc12", "test": "bead binding, competition bead pull-down, refers to: LINJ.26.0770", "test system": "Leishmania donovani axenic amastigote extract", "setting": "10 µM", "scale": "relative to: vehicle", "measurement": "relative abundance", "value": 0.98}
{"Compound": "CC(C)CC(C(=O)N1CC2(CC1C#N)C(=O)Nc1ccccc12)N(C)C(=O)c1cc2c(F)cc(F)c(F)c2[nH]1 (stereo not shown)", "tested on": "Human coronavirus 229E", "test": "cytopathic effect", "test system": "MRC5", "setting": "1.852 nM", "measurement": "inhibition", "value": "19%"}
{"Compound": "CN1C(=O)C(C2C3=C(CCCC3=O)Oc3ccc(Cl)cc32)C(=O)N(C)C1=O (stereo not shown)", "tested on": "3T3-L1 mature adipocytes", "test": "MTT", "setting": "72 h", "measurement": "IC50", "value": "100 to 1000 mg/L"}
{"Compound": "Cc1cc(Oc2nc(N3CC[C@@H](c4ccncc4)C3)ncc2F)[nH]n1", "tested on": "Mycobacterium tuberculosis", "test": "OD", "test system": "H37Rv PurF CRISPRi knockdown", "setting": "0.0625 µM, with: anhydrotetracycline low", "measurement": "normalised growth", "value": "2%"}
{"Compound": "Nc1ncc(-c2cc(-c3cnn(CC(F)(F)F)c3)ncc2F)nc1C(=O)NC1CNCC(F)C1 (stereo not shown)", "tested on": "ABL1(F317L)-nonphosphorylated", "test": "KINOMEscan competition binding", "setting": "1 µM", "scale": "relative to: DMSO control", "measurement": "remaining binding", "value": "100%"}
{"Compound": "O=C(C[Se]C(=O)c1cccs1)Nc1cccc(C(F)(F)F)c1", "tested on": "NCI60 renal subpanel", "test": "cell growth", "setting": "10 µM, 48 h, one-dose", "measurement": "mean growth percent", "value": "-81.9%"}
{"Compound": "CCCCCC1=C(NCC)C(=O)C(C/C=C(\\C)CCC=C(C)C)=C(O)C1=O", "test": "RNA-seq, refers to: Irf1 regulon", "test system": "mouse, striatum", "setting": "dose not given", "scale": "direction not given", "measurement": "normalised enrichment score", "value": 2.21}
{"Compound": "CCN(CC)C(=O)[C@@H]1C=C2c3cccc4c3c(cn4C(=O)c3cccs3)C[C@H]2N(C)C1", "test": "magnetometer", "test system": "C57BL/6J mouse, male", "setting": "intraperitoneal, 0.5 mg/kg, 30 min session", "measurement": "head-twitch response count", "value": 18.2}
{"Compound": "Cc1cc(C(=O)Nc2nc3cccc(C)c3n2[C@H]2CCCCN(C(=O)/C=C/CN(C)C)C2)ccn1", "tested on": "Trypanosoma brucei", "test": "propidium iodide flow cytometry", "test system": "bloodstream form", "setting": "concentration not given, 6 h", "measurement": "cells in sub-G0 phase", "value": "1.12%"}
{"Compound": "Cc1ccc2c(n1)c(-c1cccc(S(C)(=O)=O)c1)c(C)n2C/C(F)=C/CN", "tested on": "NMDA glutamate receptor (rat)", "test": "binding, radioligand binding", "test system": "rat tissue", "setting": "10 µM, Agonism", "measurement": "inhibition", "value": "-7%"}
{"Compound": "Cc1ccc(NS(=O)(=O)c2c(C(=O)N3CCCCCC3)c(C)n(C)c2C)c(Cl)c1", "tested on": "Human alphaherpesvirus 1", "test": "viral infection", "test system": "HaCaT", "setting": "3.704 µM, 36 h", "scale": "relative to: untreated", "measurement": "infection", "value": "102% and 112% and 101%"}
{"Compound": "COc1ccccc1-c1n[nH]c2nc(N[C@H]3CC[C@H](NS(=O)(=O)CC(C)C)CC3)ncc12", "test": "bead binding, competition bead pull-down, refers to: LINJ.05.0350", "test system": "Leishmania donovani extract", "setting": "10 µM", "scale": "relative to: vehicle", "measurement": "relative abundance", "value": 1.34}
{"Compound": "Cc1ccc(N2CC3CC(C2)N3C)cc1C(=O)NC1(c2ccc3c4c(cccc24)C(=O)N3C)CC1", "tested on": "PDCoV-PLpro", "test": "enzyme activity, inhibitor", "setting": "100 µM", "measurement": "inhibition", "value": "57.9% and 47.8%"}
{"Compound": "O=C(O)c1ccc(-c2nc(-c3ccccc3Cl)c3sccn23)cc1", "test system": "C57BL/6 mice, 5-fluorouracil treated", "setting": "dose not given, day 26", "measurement": "reticulated platelets", "value": "13.4% and 14.9% and 18.7%"}
{"note": "Repeated from above:"}
{"Compound": "COc1ccccc1-c1n[nH]c2nc(N[C@H]3CC[C@H](NS(=O)(=O)CC(C)C)CC3)ncc12", "test": "bead binding, competition bead pull-down, refers to: LINJ.05.0350", "test system": "Leishmania donovani extract", "setting": "10 µM", "scale": "relative to: vehicle", "measurement": "relative abundance", "value": 1.34}
{"Compound": "Cc1ccc(N2CC3CC(C2)N3C)cc1C(=O)NC1(c2ccc3c4c(cccc24)C(=O)N3C)CC1", "tested on": "PDCoV-PLpro", "test": "enzyme activity, inhibitor", "setting": "100 µM", "measurement": "inhibition", "value": "57.9% and 47.8%"}
{"Compound": "O=C(O)c1ccc(-c2nc(-c3ccccc3Cl)c3sccn23)cc1", "test system": "C57BL/6 mice, 5-fluorouracil treated", "setting": "dose not given, day 26", "measurement": "reticulated platelets", "value": "13.4% and 14.9% and 18.7%"}
